Results from different studies.
± gives the spread as reported.
MAOA: Amine oxidase [flavin-containing] A (MAOA, Homo sapiens, UniProt P21397)
UniProt P21397, sequence (whole entry, looked up): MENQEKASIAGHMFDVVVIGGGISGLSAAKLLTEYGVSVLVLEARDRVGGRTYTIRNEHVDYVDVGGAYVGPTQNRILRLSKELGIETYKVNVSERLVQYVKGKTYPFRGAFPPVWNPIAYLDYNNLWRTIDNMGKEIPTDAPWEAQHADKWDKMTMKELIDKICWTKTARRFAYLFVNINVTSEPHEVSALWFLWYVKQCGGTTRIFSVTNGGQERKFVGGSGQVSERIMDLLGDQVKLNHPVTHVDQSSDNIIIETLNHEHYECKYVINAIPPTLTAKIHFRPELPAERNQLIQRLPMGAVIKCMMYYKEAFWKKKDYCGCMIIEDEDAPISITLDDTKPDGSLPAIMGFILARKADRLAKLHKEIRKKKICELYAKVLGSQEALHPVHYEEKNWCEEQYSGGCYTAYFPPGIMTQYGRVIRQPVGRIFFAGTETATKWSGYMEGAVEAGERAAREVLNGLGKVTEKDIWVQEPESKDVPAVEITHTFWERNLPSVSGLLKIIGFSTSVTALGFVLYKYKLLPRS
Cereblon/Ikaros: Cereblon/Ikaros (Homo sapiens, UniProt Q13422+Q96SW2)
ATR: Serine/threonine-protein kinase ATR (ATR, Homo sapiens, UniProt Q13535)
UniProt Q13535, sequence (whole entry, looked up): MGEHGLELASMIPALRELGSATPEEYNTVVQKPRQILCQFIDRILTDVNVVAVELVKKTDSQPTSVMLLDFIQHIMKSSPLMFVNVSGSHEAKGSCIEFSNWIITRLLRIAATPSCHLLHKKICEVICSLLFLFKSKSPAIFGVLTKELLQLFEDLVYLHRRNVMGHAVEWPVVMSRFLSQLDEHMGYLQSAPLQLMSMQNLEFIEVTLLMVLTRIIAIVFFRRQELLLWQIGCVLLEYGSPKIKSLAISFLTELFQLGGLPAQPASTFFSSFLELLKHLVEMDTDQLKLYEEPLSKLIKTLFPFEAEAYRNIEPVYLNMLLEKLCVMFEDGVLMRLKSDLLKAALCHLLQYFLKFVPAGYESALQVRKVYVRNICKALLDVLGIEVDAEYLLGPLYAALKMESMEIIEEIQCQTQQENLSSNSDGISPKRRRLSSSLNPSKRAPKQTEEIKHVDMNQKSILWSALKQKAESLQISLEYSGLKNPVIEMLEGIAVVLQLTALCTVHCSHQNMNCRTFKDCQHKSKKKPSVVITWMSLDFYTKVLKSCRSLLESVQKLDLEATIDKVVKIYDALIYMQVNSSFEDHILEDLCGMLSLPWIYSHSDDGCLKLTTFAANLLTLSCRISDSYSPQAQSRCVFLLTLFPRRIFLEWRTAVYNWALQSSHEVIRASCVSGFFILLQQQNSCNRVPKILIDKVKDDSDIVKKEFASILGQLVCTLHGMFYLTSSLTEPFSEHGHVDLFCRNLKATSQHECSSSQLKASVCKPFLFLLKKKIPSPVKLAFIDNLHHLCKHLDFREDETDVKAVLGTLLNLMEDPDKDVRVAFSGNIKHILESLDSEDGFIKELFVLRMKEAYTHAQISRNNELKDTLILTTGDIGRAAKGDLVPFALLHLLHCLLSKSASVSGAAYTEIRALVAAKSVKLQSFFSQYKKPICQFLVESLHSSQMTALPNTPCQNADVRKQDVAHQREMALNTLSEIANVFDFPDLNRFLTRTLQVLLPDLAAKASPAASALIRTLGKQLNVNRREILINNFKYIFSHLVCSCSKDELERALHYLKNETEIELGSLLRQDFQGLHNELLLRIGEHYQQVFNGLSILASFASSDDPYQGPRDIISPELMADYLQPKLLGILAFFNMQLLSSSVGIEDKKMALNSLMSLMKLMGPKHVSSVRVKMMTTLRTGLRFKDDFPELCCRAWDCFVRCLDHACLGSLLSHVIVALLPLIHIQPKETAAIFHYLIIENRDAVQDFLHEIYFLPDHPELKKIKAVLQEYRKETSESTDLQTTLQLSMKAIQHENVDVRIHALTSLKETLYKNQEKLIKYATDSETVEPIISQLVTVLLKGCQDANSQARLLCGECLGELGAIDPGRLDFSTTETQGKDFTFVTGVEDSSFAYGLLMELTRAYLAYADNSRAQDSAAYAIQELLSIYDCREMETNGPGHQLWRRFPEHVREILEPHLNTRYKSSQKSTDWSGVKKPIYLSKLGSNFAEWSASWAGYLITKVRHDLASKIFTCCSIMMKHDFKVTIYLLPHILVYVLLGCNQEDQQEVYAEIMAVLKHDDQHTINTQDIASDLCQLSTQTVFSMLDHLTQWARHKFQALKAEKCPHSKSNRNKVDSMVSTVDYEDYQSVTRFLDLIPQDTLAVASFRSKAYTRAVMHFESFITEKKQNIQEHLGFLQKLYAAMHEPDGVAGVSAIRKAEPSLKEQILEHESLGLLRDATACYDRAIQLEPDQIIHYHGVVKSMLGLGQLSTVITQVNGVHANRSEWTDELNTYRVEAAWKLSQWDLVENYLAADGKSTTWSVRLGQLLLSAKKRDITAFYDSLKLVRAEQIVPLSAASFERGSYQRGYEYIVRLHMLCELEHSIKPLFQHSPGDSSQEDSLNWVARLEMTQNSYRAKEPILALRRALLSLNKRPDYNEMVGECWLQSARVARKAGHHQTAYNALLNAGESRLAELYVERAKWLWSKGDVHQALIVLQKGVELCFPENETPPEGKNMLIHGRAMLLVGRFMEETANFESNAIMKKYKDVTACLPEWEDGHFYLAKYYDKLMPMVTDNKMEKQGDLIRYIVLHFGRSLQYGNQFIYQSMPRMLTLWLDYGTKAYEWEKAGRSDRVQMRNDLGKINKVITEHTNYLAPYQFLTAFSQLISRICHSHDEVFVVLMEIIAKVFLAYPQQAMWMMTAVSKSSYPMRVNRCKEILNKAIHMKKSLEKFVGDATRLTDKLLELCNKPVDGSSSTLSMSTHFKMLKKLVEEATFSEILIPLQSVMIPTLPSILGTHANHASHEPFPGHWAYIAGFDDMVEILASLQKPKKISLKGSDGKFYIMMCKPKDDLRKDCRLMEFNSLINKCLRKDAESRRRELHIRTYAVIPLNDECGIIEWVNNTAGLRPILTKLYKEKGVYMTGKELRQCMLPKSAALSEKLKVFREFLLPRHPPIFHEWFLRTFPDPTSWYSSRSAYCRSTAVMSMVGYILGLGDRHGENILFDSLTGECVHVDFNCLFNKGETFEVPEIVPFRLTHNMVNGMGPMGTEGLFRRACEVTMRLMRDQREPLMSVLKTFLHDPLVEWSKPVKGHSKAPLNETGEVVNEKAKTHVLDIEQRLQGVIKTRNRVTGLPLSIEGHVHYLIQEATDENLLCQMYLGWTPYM
IL1RL2: Interleukin-1 receptor-like 2 (IL1RL2, Homo sapiens, UniProt Q9HB29)
UniProt P11802, sequence (whole entry, looked up): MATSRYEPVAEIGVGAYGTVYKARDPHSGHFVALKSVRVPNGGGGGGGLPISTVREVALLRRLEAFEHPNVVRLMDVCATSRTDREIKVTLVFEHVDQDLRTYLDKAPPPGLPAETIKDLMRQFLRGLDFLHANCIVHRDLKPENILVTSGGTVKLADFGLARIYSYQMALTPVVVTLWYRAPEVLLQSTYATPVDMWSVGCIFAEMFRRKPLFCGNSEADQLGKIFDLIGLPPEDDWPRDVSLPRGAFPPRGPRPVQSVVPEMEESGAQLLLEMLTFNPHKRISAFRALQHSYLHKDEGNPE
UniProt Q9HB29, sequence (whole entry, looked up): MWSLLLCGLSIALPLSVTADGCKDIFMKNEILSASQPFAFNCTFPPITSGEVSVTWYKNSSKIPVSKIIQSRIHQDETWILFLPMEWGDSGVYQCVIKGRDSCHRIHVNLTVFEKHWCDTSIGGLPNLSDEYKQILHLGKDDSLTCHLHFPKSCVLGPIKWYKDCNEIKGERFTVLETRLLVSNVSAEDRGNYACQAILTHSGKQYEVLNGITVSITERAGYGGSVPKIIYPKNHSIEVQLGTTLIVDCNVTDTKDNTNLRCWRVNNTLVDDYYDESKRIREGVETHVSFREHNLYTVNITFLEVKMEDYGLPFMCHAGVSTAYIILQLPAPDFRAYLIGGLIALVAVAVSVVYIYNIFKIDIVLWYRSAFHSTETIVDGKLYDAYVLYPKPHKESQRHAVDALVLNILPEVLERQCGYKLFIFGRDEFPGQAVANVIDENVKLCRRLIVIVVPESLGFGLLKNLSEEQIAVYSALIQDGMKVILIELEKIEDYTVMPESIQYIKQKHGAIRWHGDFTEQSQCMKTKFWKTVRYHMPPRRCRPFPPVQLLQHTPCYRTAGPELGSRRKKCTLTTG
UniProt O43781, sequence (whole entry, looked up): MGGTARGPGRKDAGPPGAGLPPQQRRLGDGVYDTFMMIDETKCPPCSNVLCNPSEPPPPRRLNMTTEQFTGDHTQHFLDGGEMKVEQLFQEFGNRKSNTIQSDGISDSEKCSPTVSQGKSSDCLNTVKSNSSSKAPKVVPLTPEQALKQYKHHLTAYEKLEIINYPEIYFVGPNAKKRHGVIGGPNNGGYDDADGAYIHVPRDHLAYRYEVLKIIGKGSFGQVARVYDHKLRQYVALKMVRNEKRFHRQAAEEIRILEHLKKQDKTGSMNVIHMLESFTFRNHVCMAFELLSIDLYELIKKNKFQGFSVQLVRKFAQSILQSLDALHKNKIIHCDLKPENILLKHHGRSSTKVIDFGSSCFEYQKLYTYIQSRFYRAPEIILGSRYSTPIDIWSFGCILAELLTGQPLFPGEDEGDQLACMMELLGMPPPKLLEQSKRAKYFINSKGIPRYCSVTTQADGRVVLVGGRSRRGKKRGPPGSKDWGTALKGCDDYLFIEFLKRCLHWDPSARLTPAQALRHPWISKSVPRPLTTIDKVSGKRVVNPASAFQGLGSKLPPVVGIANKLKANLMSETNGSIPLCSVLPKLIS
UniProt Q16539, sequence (whole entry, looked up): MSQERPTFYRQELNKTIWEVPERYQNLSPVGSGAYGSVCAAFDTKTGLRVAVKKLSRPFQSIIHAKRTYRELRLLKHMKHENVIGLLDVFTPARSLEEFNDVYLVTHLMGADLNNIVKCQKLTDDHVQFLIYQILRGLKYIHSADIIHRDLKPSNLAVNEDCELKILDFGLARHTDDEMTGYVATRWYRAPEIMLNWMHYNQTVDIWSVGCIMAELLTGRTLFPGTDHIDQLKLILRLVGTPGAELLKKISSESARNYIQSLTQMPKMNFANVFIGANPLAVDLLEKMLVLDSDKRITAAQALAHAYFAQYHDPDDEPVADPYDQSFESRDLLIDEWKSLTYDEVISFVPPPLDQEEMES

COc1ccccc1-c1ccncc1C(=O)Nc1nnc(OCc2ccc(Cl)cc2)s1 — remaining activity (DNA polymerase theta, helicase domain (POLQ, Homo sapiens, UniProt O75417); ATPase activity, ADP-Glo; 0.03 µM; baseline: 0 µM cpd): 43%
COc1cc(C(=O)/C=C/c2ccc(C(C)C)cc2)cc(OC)c1OC — remaining activity (MAOA; enzyme activity, inhibitor; 10 µM): 83.3%
O=C1CCC(N2C(=O)c3cccc4c(Cc5cnn(C6CCN(C(=O)CS)CC6)c5)ccc2c34)C(=O)N1 (stereo not drawn) — remaining activity (Cereblon/Ikaros; protein level, degrader, western blot; NCI-H929; 10 nM, 4 h): 81.3%
Cc1ccc(C)c(-c2ccc3nc(NC(=O)C4CCCCC4)nn3c2)c1 — remaining activity (DYRK3 (Homo sapiens, UniProt O43781); enzyme activity, Dundee kinase panel; 10 µM): 4%
COC(=O)[C@@]1(C)C=C(C(=O)Nc2cccc(C(=O)Nc3ccc(Nc4nccc(-c5cccnc5)n4)c(C)c3)c2)C(=O)CC1 — remaining activity (MAPK14 (Homo sapiens, UniProt Q16539); kinase activity, inhibitor; 44.44 µM, unit not given; baseline: no inhibitor): 0.389
O=C1CCC(N2C(=O)c3cccc4c(Cc5cnn(C6CCNCC6)c5)ccc2c34)C(=O)N1 (stereo not drawn) — remaining activity (Cereblon/Ikaros; protein level, degrader, western blot; NCI-H929; 1 nM, 4 h): 73.3%
CNC(=O)C[C@H](Cc1ccc(C#N)cc1)NC(=O)c1cc(-c2ccc(CN[C@H](C)c3ccc(C)cc3)o2)ccc1Cl — remaining activity (ATR; enzyme activity, KinaseProfiler panel; 1 µM): 98%
O=C1CCC(N2C(=O)c3cccc4c(Cc5cnn(C6CCN(C(=O)C7(O)CC7)CC6)c5)ccc2c34)C(=O)N1 (stereo not drawn) — remaining activity (Cereblon/Ikaros; protein level, degrader, western blot; NCI-H929; 10 nM, 4 h): 7.36%
CN1C[C@@H](c2c[nH]c3cc(Br)ccc23)NC[C@@H]1c1c[nH]c2cc(Br)ccc12 — remaining activity (Cyclin-dependent kinase 4, with cyclin D3 (CDK4, Homo sapiens, UniProt P11802); enzyme activity, inhibitor; 10 µM): 98%
O=c1c(-c2ccc(Cl)c(CN3CCOCC3)c2)coc2cc(O)ccc12 — remaining activity (ATR; enzyme activity, inhibitor, KinaseProfiler; 1 µM, with: ATP at Km): 103%
Nc1ncc(-c2cc(-c3cnn(CC(F)(F)F)c3)ncc2F)nc1C(=O)NC1CNCC(F)C1 (stereo not drawn) — remaining activity (Cyclin-dependent kinase 4, with cyclin D1 (CDK4, Homo sapiens, UniProt P11802); enzyme activity; 1 µM; baseline: DMSO control): 96.1%
O=C1CCC(N2C(=O)c3cccc4c(Cn5cc(C6CCNCC6)nn5)ccc2c34)C(=O)N1 (stereo not drawn) — remaining activity (Cereblon/Ikaros; protein level, degrader, western blot; NCI-H929; 10 nM, 4 h): 39.3%
C[C@](C(=O)NC1CCOCC1)(c1cncnc1)N(C(=O)[C@H](F)Cl)c1ccc(OC(F)(F)Cl)cc1 — remaining activity (Caspase-7 (CASP7, Homo sapiens, UniProt P55210); enzyme activity, inhibitor; 10 µM): 110%
CC(C)(O)C(=O)N1CCC(n2cc(Cc3ccc4c5c(cccc35)C(=O)N4C3CCC(=O)NC3=O)cn2)CC1 (stereo not drawn) — remaining activity (Cereblon/Ikaros; protein level, degrader, western blot; NCI-H929; 100 pM, 4 h): 101%
O=C1Nc2ccc(I)cc2C1=Cc1cc(Br)c(O)c(Br)c1 — remaining activity (DCLRE1A (Homo sapiens, UniProt Q6PJP8); exonuclease activity, inhibitor, fluorescence HTS; 10 µM, 80 min, with: 8 nM 5P-FQ substrate): 51.4%
O=C1CCC(N2Cc3c(OCc4cn(C5CCNCC5)nn4)cccc3C2=O)C(=O)N1 (stereo not drawn) — remaining activity (Cereblon/Ikaros; protein level, degrader, western blot; NCI-H929; 10 nM, 4 h): 69.8%
CC(C)[C@@H]1NC(=O)[C@H](Cc2ccccc2)NC(=O)CSC[C@@H](C(N)=O)NC(=O)[C@H](CCC(=O)O)NC(=O)[C@H](CO)NC(=O)[C@H](Cc2c[nH]c3cccc(Cl)c23)NC(=O)[C@H](C2CCCCC2)NC(=O)[C@H](C(C)C)NC(=O)[C@H](Cc2ccc(O)cc2)NC(=O)[C@H](CC(=O)O)NC(=O)[C@H](Cc2c[nH]c3ccccc23)NC(=O)[C@H](Cc2ccc(N)nc2)NC(=O)[C@H](Cc2c[nH]c3ccc(Cl)cc23)NC(=O)[C@H](CCC(=O)O)NC1=O — remaining activity (IL1RL2; reporter gene (SEAP), inhibitor, HEK-Blue IL-36R reporter; HEK-Blue IL-36R cells; 0.015 µM, 6 h, with: IL-36γ 30 ng/mL): 107%
O=C1CCC(N2C(=O)c3cccc4c(Cc5ccc(CN6CCNCC6)cc5)ccc2c34)C(=O)N1 (stereo not drawn) — remaining activity (Cereblon/Ikaros; protein level, degrader, western blot; NCI-H929; 10 nM, 4 h): 31.8%
Cn1nnnc1Sc1c2c(c(C#N)c3nc4ccccc4n13)CCCC2 — remaining activity (MAOA; 100 µM): 93 ± 7.4%
CCOc1ccc(C(=O)/C=C/c2ccc(C(C)C)cc2)cc1 — remaining activity (MAOA; enzyme activity, inhibitor; 10 µM): 45.9%
N#Cc1cnc2sc(C(=O)O)cc2c1N1CCc2[nH]nc(C(=O)N[C@@H](CC(=O)NCCOCCN3CCOCC3)c3cccc(Br)c3)c2C1 — remaining activity (IL1RL2; SEAP reporter gene, antagonist; HEK-Blue IL-36R cells; 0.015 µM, 6 h, with: IL-36 0.003 ng/mL; baseline: untreated): 90.2%

Repeated from above:
CNC(=O)C[C@H](Cc1ccc(C#N)cc1)NC(=O)c1cc(-c2ccc(CN[C@H](C)c3ccc(C)cc3)o2)ccc1Cl — remaining activity (ATR; enzyme activity, KinaseProfiler panel; 1 µM): 98%
O=C1CCC(N2C(=O)c3cccc4c(Cc5cnn(C6CCNCC6)c5)ccc2c34)C(=O)N1 (stereo not drawn) — remaining activity (Cereblon/Ikaros; protein level, degrader, western blot; NCI-H929; 1 nM, 4 h): 73.3%
